{"data": "Measurements from different studies", "rep papain-like protease": "Replicase polyprotein 1ab, papain-like protease (rep, Severe acute respiratory syndrome coronavirus 2, UniProt P0DTD1)", "Spike glycoprotein": "Spike glycoprotein (Severe acute respiratory syndrome coronavirus 2, UniProt P0DTC2)", "rep nsp13 helicase": "Replicase polyprotein 1ab, nsp13 helicase (rep, Severe acute respiratory syndrome coronavirus 2, UniProt P0DTD1)", "rep methyltransferase": "Replicase polyprotein 1ab, methyltransferase (rep, Severe acute respiratory syndrome coronavirus 2, UniProt P0DTD1)", "rep main protease": "Replicase polyprotein 1ab, main protease (rep, Severe acute respiratory syndrome coronavirus 2, UniProt P0DTD1)", "rep nsp14": "Replicase polyprotein 1ab, nsp14 (rep, Severe acute respiratory syndrome coronavirus 2, UniProt P0DTD1)", "note": "Each line is one published result; not all experiments were run side by side. Numbers after ± are the reported error."}
{"Molecule": "CCn1ccc(-c2cc(-c3cnn(C)c3)cc([C@@H](C)NC(=O)c3ccccc3CCC(=O)NNC(=O)C34CC(C3)C4)c2)n1", "target or system": "rep papain-like protease", "test": "enzyme activity, inhibitor", "quantity": "IC50", "result": "> 10 µM"}
{"Molecule": "CO[C@H]1C[C@@H]2CC[C@@H](C)[C@@](O)(O2)C(=O)C(=O)N2CCCC[C@H]2C(=O)O[C@H]([C@H](C)C[C@@H]2CC[C@@H](O)[C@H](OC)C2)CC(=O)[C@H](C)/C=C(\\C)[C@@H](O)[C@@H](OC)C(=O)[C@H](C)C[C@H](C)/C=C/C=C/C=C/1C", "target or system": "Spike glycoprotein", "test": "binding, biolayer interferometry", "quantity": "Kd", "result": "89.6 µM"}
{"Molecule": "CCOc1ccc(NC(=O)CN(C)S(=O)(=O)c2ccc(-c3ccc(=O)[nH]n3)s2)cc1", "target or system": "rep nsp13 helicase", "test": "helicase ATPase activity, inhibitor, Kinase-Glo luminescence", "quantity": "IC50", "result": "> 150 µM"}
{"Molecule": "CC1CC(c2ccc(C(=O)O)cc2)=NN1c1ccccc1 (stereo not shown)", "target or system": "rep methyltransferase", "test": "enzyme activity, inhibitor", "quantity": "IC50", "result": "100 µM"}
{"Molecule": "O=C(Nc1cccc(C(=O)Nc2ccc(S(=O)(=O)O)c3cc(S(=O)(=O)O)cc(S(=O)(=O)O)c23)c1)Nc1cccc(C(=O)Nc2ccc(S(=O)(=O)O)c3cc(S(=O)(=O)O)cc(S(=O)(=O)O)c23)c1", "target or system": "rep methyltransferase", "test": "enzyme activity, inhibitor", "quantity": "IC50", "result": "84.7 µM"}
{"Molecule": "O=C1NC(=S)N(C2CC2)C(=O)/C1=C/c1ccc2c(c1)CCN2CCCCl", "target or system": "rep nsp13 helicase", "test": "helicase ATPase activity, inhibitor, Kinase-Glo luminescence", "quantity": "IC50", "result": "29 µM"}
{"Molecule": "CCC(C(=O)Nc1ccccc1C)n1cccc2nc(SCc3cccc(F)c3)nc1-2 (stereo not shown)", "target or system": "rep papain-like protease", "test": "enzyme activity, inhibitor", "quantity": "IC50", "result": "4.16 µM"}
{"Molecule": "COc1ccc2c(c1)n(C(C)C)c[n+]2C(C)C.[Cl][Ag]", "target or system": "rep main protease", "test": "enzyme activity, inhibitor", "quantity": "IC50", "result": "> 50 µM"}
{"Molecule": "CCC(C(=O)Nc1ccccc1C)n1cccc2nc(SCc3ccc(OC)cc3)nc1-2 (stereo not shown)", "target or system": "rep papain-like protease", "test": "enzyme activity, inhibitor", "quantity": "IC50", "result": "3.51 µM"}
{"Molecule": "Cc1ccc(C(=O)O)cc1-c1ccc(/C=C2\\SC(=O)N(CC(=O)Nc3ccccc3)C2=O)o1", "target or system": "rep nsp13 helicase", "test": "helicase ATPase activity, inhibitor, Kinase-Glo luminescence", "setting": "60 min, with: 2.5 µM ATP", "quantity": "IC50", "result": "11 µM"}
{"Molecule": "CCC(C(=O)Nc1ccccc1C)n1cccc2nc(SCc3ccccc3F)nc1-2 (stereo not shown)", "target or system": "rep papain-like protease", "test": "enzyme activity, inhibitor", "quantity": "IC50", "result": "3.58 µM"}
{"Molecule": "Nc1nc(OCc2cc(Br)cs2)c2[nH]cnc2n1", "target or system": "rep methyltransferase", "test": "enzyme activity, inhibitor", "quantity": "IC50", "result": "> 100 µM"}
{"Molecule": "C=C1C[C@@]23CC[C@H]4[C@@](C)(CCC[C@@]4(C)C(=O)O[C@@H]4O[C@H](CO)[C@@H](O)[C@H](O)[C@H]4O)[C@@H]2CC[C@]1(O[C@@H]1O[C@H](CO)[C@@H](O)[C@H](O)[C@H]1O)C3", "target or system": "Spike glycoprotein", "test": "binding, BLI", "quantity": "Kd", "result": "1.21 µM"}
{"Molecule": "CC(C)C1CC(c2ccc(C(=O)O)cc2)=NN1c1ccc(C#N)c(Cl)c1 (stereo not shown)", "target or system": "rep methyltransferase", "test": "enzyme activity, inhibitor", "quantity": "IC50", "result": "3.16 µM"}
{"Molecule": "Nc1ncnc2c([C@@H]3N[C@H](CO)[C@@H](O)[C@H]3O)c[nH]c12", "target or system": "Junin virus", "test": "viral replication", "system": "HeLa, Romero", "setting": "50 µM", "quantity": "inhibition", "result": "57.2%"}
{"Molecule": "CC[C@H](C)[C@H](NC(=O)[C@H](CC(C)C)NC(=O)[C@H](Cc1c[nH]c2ccccc12)NC(=O)[C@H](CCC(N)=O)NC(=O)[C@@H](NC(=O)[C@H](Cc1ccccc1)NC(=O)[C@H](C)NC(=O)[C@H](CCCCNC(=O)COCCOCCNC(=O)COCCOCCNC(=O)CC[C@H](NC(=O)CCCCCCCCCCCCCCCCCCC(=O)O)C(=O)O)NC(=O)[C@H](CCC(N)=O)NC(=O)[C@H](C)NC(=O)[C@@H](NC(=O)[C@H](CCCCN)NC(=O)[C@H](CC(=O)O)NC(=O)[C@H](CC(C)C)NC(=O)C(C)(C)NC(=O)[C@@H](NC(=O)[C@H](CO)NC(=O)[C@H](Cc1ccc(O)cc1)NC(=O)[C@H](CC(=O)O)NC(=O)[C@H](CO)NC(=O)[C@@H](NC(=O)[C@H](Cc1ccccc1)NC(=O)[C@@H](NC(=O)CNC(=O)[C@H](CCC(=O)O)NC(=O)C(C)(C)NC(=O)[C@@H](N)Cc1ccc(O)cc1)[C@@H](C)O)[C@@H](C)O)[C@@H](C)CC)[C@@H](C)CC)C(C)C)C(=O)N[C@@H](C)C(=O)NCC(=O)NCC(=O)N1CCC[C@H]1C(=O)N[C@@H](CO)C(=O)N[C@@H](CO)C(=O)NCC(=O)N[C@@H](C)C(=O)N1CCC[C@H]1C(=O)N1CCC[C@H]1C(=O)N1CCC[C@H]1C(=O)N[C@@H](CO)C(N)=O", "system": "healthy subjects, single ascending dose", "setting": "0.25 mg, baseline", "quantity": "serum amylase", "result": "74 ± 16.3 U/L"}
{"Molecule": "Oc1ccc2ccccc2c1SSc1c(O)ccc2ccccc12", "target or system": "rep methyltransferase", "test": "enzyme activity, inhibitor", "quantity": "IC50", "result": "10.1 µM"}
{"Molecule": "Oc1c(Br)cc(Br)cc1/C=N/NC(=S)N[C@H]1CC2C=CC1C2 (stereo partly shown)", "target or system": "rep nsp13 helicase", "test": "helicase ATPase activity, inhibitor, Kinase-Glo luminescence", "setting": "60 min, with: 2.5 µM ATP", "quantity": "IC50", "result": "6 µM"}
{"Molecule": "Cn1cnc(Cn2c(=O)[nH]/c(=N\\c3cc4cn(C)nc4cc3Cl)n(Cc3cc(F)c(F)cc3F)c2=O)n1", "system": "human, all renal function groups", "setting": "oral, 375 mg", "quantity": "anaemia TEAE, Moderate severity", "result": "0%"}
{"Molecule": "Cc1cccc(NC2=NC(=O)/C(=C/C=C/c3ccco3)S2)c1C", "target or system": "rep nsp13 helicase", "test": "helicase ATPase activity, inhibitor, Kinase-Glo luminescence", "setting": "60 min, with: 2.5 µM ATP", "quantity": "IC50", "result": "3 µM"}
{"Molecule": "COc1ccccc1C(C)NC(=O)c1cc(S(=O)(=O)N2CCC(C)CC2)c(C)n1C (stereo not shown)", "target or system": "rep nsp14", "test": "inhibitor", "quantity": "IC50", "result": "1.1 µM"}
{"Molecule": "Cn1c(CCCC(=O)O)nc2cc(N(CCCl)CCCl)ccc21", "target or system": "rep nsp14", "test": "methyltransferase activity, inhibitor, RapidFire MS, item: SAH", "quantity": "IC50", "result": "26.6 to 40.1 µM"}
{"Molecule": "Cc1ccc(C(=O)/C=C/c2cc(Br)cc(Br)c2O)o1", "target or system": "rep nsp13 helicase", "test": "helicase ATPase activity, inhibitor, Kinase-Glo luminescence", "setting": "60 min, with: 2.5 µM ATP", "quantity": "IC50", "result": "5 µM"}
{"Molecule": "Oc1c(Cl)cc(Cl)c(Cl)c1Cc1c(O)c(Cl)cc(Cl)c1Cl", "target or system": "rep methyltransferase", "test": "enzyme activity, inhibitor", "setting": "pH 7.5", "quantity": "IC50", "result": "< 10 µM"}
{"Molecule": "Cc1cc(Cl)ccc1Oc1ccccc1C(=O)CC#N", "target or system": "rep nsp13 helicase", "test": "helicase ATPase activity, inhibitor, Kinase-Glo luminescence", "setting": "60 min, with: 2.5 µM ATP", "quantity": "IC50", "result": "58 µM"}
{"Molecule": "CC(=O)[C@]1(O)Cc2c(O)c3c(c(O)c2[C@@H](O[C@H]2C[C@H](N)[C@H](O)[C@H](C)O2)C1)C(=O)c1ccccc1C3=O", "target or system": "rep main protease", "test": "enzyme activity, inhibitor, FRET", "quantity": "IC50", "result": "250 to 600 µM"}
{"Molecule": "CCC(C(=O)Nc1cc(NC2CCOCC2)ccc1C)n1cccc2nc(SCc3ccc(F)cc3)nc1-2 (stereo not shown)", "target or system": "rep papain-like protease", "test": "enzyme activity, inhibitor", "quantity": "IC50", "result": "0.672 µM"}
{"Molecule": "Cc1ccc(C(CCN(Cc2ccccc2)C(=O)c2ccco2)c2ccco2)cc1 (stereo not shown)", "target or system": "rep nsp13 helicase", "test": "helicase ATPase activity, inhibitor, Kinase-Glo luminescence", "setting": "60 min, with: 2.5 µM ATP", "quantity": "IC50", "result": "20 µM"}
{"Molecule": "Cc1nn(-c2ccc(Cl)cc2)c2c1C(c1ccc(Cl)cc1Cl)C(C#N)=C(N)O2 (stereo not shown)", "target or system": "rep main protease", "test": "3CL protease activity", "quantity": "IC50", "result": "1.83 µM"}
{"Molecule": "COc1cc2c(cc1O)CCN[C@]21CS[C@@H]2c3c(OC(C)=O)c(C)c4c(c3[C@H](COC1=O)N1[C@@H]2[C@H]2c3c(cc(C)c(OC)c3O)C[C@@H]([C@@H]1C#N)N2C)OCO4", "target or system": "Replicase polyprotein 1ab, nsp12 RdRp (rep, Severe acute respiratory syndrome coronavirus 2, UniProt P0DTD1)", "test": "RdRp-dependent reporter gene, GLuc reporter", "system": "HEK293T", "setting": "24 h", "quantity": "IC50", "result": "0.028 µM"}
{"Molecule": "CCCCCCCCCCCCCCCC(=O)OCC(O)CO (stereo not shown)", "target or system": "rep main protease", "test": "enzyme activity, inhibitor", "setting": "with: fluorogenic substrate", "quantity": "IC50", "result": "29.2 ± 1.24 µM"}
{"Molecule": "colistin sulfate", "target or system": "rep papain-like protease", "test": "PLpro activity, inhibitor", "setting": "30 min, 37 °C, with: substrate 27 µM", "quantity": "IC50", "result": "2.94 ± 0.54 µM"}
{"Molecule": "CC[C@H](CC[C@@H](C)[C@H]1CC[C@H]2[C@@H]3CC=C4C[C@@H](O[C@@H]5O[C@H](CO)[C@@H](O)[C@H](O)[C@H]5O)CC[C@]4(C)[C@H]3CC[C@]12C)C(C)C", "target or system": "rep main protease", "test": "enzyme activity, inhibitor", "setting": "with: fluorogenic substrate", "quantity": "IC50", "result": "137 ± 5.83 µM"}
{"Molecule": "CC(C)n1cc(C(=O)NC2CCCc3c2[nH]c2ccccc32)c2ccccc2c1=O (stereo not shown)", "target or system": "rep methyltransferase", "test": "enzyme activity, inhibitor", "quantity": "IC50", "result": "75.2 µM"}
{"note": "Excerpt of the above:"}
{"Molecule": "O=C(Nc1cccc(C(=O)Nc2ccc(S(=O)(=O)O)c3cc(S(=O)(=O)O)cc(S(=O)(=O)O)c23)c1)Nc1cccc(C(=O)Nc2ccc(S(=O)(=O)O)c3cc(S(=O)(=O)O)cc(S(=O)(=O)O)c23)c1", "target or system": "rep methyltransferase", "test": "enzyme activity, inhibitor", "quantity": "IC50", "result": "84.7 µM"}
{"Molecule": "CCOc1ccc(NC(=O)CN(C)S(=O)(=O)c2ccc(-c3ccc(=O)[nH]n3)s2)cc1", "target or system": "rep nsp13 helicase", "test": "helicase ATPase activity, inhibitor, Kinase-Glo luminescence", "quantity": "IC50", "result": "> 150 µM"}
